Experimental data gathered from unrelated publications.
Every numbered part comes from another study and shows a few of its results, in no order. Changes are numbered by the printed parent chain.

Study 1
Target: Sal-like protein 4, full length isoform A (SALL4, Homo sapiens, UniProt Q9UJQ4, residues 1-1053)
UniProt Q9UJQ4, sequence (whole entry, looked up): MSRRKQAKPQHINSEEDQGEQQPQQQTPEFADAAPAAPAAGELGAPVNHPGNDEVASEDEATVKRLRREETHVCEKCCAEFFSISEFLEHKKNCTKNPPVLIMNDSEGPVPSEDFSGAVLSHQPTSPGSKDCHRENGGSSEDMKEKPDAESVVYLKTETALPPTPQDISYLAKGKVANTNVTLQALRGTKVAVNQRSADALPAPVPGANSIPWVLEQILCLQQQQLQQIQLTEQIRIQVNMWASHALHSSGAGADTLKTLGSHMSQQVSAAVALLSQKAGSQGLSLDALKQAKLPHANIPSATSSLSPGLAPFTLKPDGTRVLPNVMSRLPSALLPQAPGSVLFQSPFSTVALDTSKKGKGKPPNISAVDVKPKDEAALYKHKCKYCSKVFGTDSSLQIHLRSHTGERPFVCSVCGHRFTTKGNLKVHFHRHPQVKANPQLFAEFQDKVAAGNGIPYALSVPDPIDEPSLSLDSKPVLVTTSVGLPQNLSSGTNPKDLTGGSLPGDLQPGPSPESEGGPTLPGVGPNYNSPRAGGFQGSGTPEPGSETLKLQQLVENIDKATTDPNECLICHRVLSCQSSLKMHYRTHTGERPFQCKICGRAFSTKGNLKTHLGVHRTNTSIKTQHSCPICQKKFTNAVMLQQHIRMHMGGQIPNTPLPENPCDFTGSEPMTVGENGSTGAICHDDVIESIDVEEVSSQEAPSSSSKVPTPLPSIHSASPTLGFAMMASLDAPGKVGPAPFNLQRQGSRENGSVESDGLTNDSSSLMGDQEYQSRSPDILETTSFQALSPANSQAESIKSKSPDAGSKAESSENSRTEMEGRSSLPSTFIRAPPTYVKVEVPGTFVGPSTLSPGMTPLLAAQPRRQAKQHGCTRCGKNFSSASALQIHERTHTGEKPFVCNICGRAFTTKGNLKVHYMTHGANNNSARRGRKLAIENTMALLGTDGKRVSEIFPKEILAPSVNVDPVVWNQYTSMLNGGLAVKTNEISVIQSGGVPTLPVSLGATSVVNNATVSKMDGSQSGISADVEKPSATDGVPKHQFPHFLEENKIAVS
Method: universal PBM
Form: double-stranded DNA, one strand shown
Matrix: in vitro
Tested at: 600 nM
Notes: 8-mer, flanks averaged, mean of replicates
Reading: higher = stronger binding
Sequence | E-score
AAAGCAAC | 0.016
CCTACCCG | -0.292
GCGGACGC | -0.271
CGGTGCGA | -0.298
AGTGCTAA | 0.0335
GCACCGCA | -0.258
CAGTCGTA | 0.0427
CAAGCCTC | -0.279
GCGGTGTA | -0.0772
AATCCCTG | -0.16

Study 2
Target: RNA binding protein fox-1 homolog 2, RRM domain, GST-SBP tag (RBFOX2, Homo sapiens, UniProt O43251-10, residues 100-194)
Method: RNA Bind-n-Seq
Form: RNA
Matrix: in vitro
Tested at: 365 nM
Notes: natural RNA segment, single round, ends assumed
Baseline: no-protein control
Reading: higher = stronger binding
All sequences stand within: GGGAGUUCUACAGUCCGACGAUC … UGGAAUUCUCGGGUGCCAA
Sequence | RBNS enrichment (R)
AGCACUUUACAAAUGGCUCCAUGUCAUUCAUCCCAGGGGCCAUAAUCUCUUGCACCACCUAUUCUUACUUCCUGUUCAGCUCCUUUACAGCUUUUAUUUUCAACUGCUUC | 1.56
UUGACAGUUGUUCAUUAGCGCACAGUGCCAGAAUGCACACUGAGGUGAGUCUCCUGGAACAGUGGAGAUGCCAGGAGAAAGAAAGACAGGUACUAGCUGAGGUUAUUUUA | 2.09
CACCCUAGCCUAGGGCUUCGACAUUGCAUGCUGGGAUCCAGCUCCUACCCUUCCUGCACUCCCUUCCCCAGUUCUGCUCAGCUCAGCUGUGGGAGGUAAACUUAAGCUGA | 10.9
GAAUAUCAGUCCAAGCAAGCUGAUACGUGAGUGGCAGUGGAUAGGAUUUGCUUAAUGGCUGAUGUAAUAAGAUUGUACUUCCUAUACAGAGGCACCUUACUCUCUGGGGC | 0.833
GUGUAAUCUUUUACCUUUUUAAAAACCAAGAUAGAGUAUCUAUUAGAGUUUUACAUUGUUGAUGAUAGAUUAACAAUAAAGUGAUGUUCUGGUGGAGGUAGACUGAAAUU | 0.361
AGCGAGGUCUGCUUCUUUCUUUUUACUUCCCCUGUGUUUCUGAAAGGCGGUUUGGCCAGGCUUACUGCAGGCAUCCGACUGUAGAGAUCGCCACAGUCUCUGGGGCUCCA | 0.445
GAAUUGCGCCAGAUAGGUCAAUACCAAGCUUCUGAUUCCUCCUCACAUAUGAAAAGUGAAAGUUGUGAGUUGUUUUCCUCUUAUUUAAACAUUGGCCUAUUAUAAUCUGU | 0.571
UGCCACCAUGGCCAGUAUGUGCAGAGCAGUACUGCAGUGUGUUCAGGGUUAGCGCCCAUGAAAGGGGACCGAGUGUAUGACAAUCUGCGUUGAUCAUGGACUACUAAAAU | 0.417

Study 3
Target: CCND3, cyclin fold, Cln2 fusion (human)
Method: yeast growth competition, sequencing
Matrix: yeast
Notes: weak parent motif
Baseline: not given
Reading: higher = stronger binding
Starting sequence: RBL1 docking peptide (human); GSAKRRLFGEDPP; partner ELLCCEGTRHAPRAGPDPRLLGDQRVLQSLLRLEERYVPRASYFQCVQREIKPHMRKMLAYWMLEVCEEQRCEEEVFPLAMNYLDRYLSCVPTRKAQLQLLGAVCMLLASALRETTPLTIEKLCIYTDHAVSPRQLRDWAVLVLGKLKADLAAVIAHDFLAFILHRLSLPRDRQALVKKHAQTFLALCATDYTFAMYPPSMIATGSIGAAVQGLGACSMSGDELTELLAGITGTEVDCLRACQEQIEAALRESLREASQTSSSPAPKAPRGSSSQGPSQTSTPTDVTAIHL
Substitution | normalised enrichment score
F8W | 0.0186
E10I | 0.105
S2N | 0.0884
R6G | 0.0139

Other studies, line by line
Substance | target | assay | system | setting | how to read | measurement | value
PhoQ, residues 284 288 289 292 302 303 SSTLLI | PhoP, residues 12 14 15 18 19 LHSVQ (Escherichia coli, UniProt P23836) | Sort-seq, measured: YFP reporter | E. coli | PhoQ-PhoP variant library, added: 10 µM Mg2+ | baseline: high Mg2+ state, higher = stronger signaling | fold induction | 8.93
